{"data": "Assay results from different studies", "target": "Transporter (Slc6a2, Rattus norvegicus, UniProt Q63380)", "note": "Lines come from different studies, so protocols differ. ± gives the spread as reported."}
{"SMILES": "CC1NCCOC1c1ccc(F)cc1 (stereo not shown)", "setting": "concentration not given", "EC50": "58 ± 7 nM"}
{"SMILES": "COc1ccc2c(c1)CC(N)C2 (stereo not shown)", "EC50": "861 ± 118 nM"}
{"SMILES": "CNC(C)C(=O)c1cccc(Cl)c1 (stereo not shown)", "assay": "substrate release, releaser", "system": "rat brain synaptosomes", "setting": "together with: [3H]MPP+", "EC50": "19 nM"}
{"SMILES": "C[C@@H]1N=C(N)O[C@@H]1c1ccc2c(c1)OCO2 (racemic)", "assay": "substrate release, releaser", "system": "rat brain synaptosomes", "setting": "together with: [3H]MPP+ 9 nM", "EC50": "14.8 ± 2.7 nM"}
{"SMILES": "CNC(C)C(=O)c1ccccc1Br (stereo not shown)", "assay": "releaser", "EC50": "156 nM"}
{"SMILES": "Cc1ccc([C@H]2OC(N)=N[C@H]2C)cc1 (relative stereo)", "assay": "substrate release, releaser", "system": "rat brain synaptosomes", "setting": "together with: [3H]MPP+ 9 nM", "EC50": "11.8 ± 2 nM"}
{"SMILES": "NC1Cc2ccccc2C1", "EC50": "86 ± 13 nM"}
{"SMILES": "CNC(C)Cc1ccc2occc2c1 (stereo not shown)", "assay": "transporter-mediated release, substrate", "system": "rat brain synaptosomes", "setting": "30 min, together with: [3H]MPP+", "EC50": "24 ± 3 nM"}
{"SMILES": "CNC(C)C(=O)c1ccccc1OC (stereo not shown)", "assay": "releaser", "EC50": "339 nM"}
{"SMILES": "CC1NCCOC1c1cccc(F)c1 (stereo not shown)", "setting": "concentration not given", "EC50": "17 ± 4 nM"}
{"SMILES": "CNC(C)C(=O)c1cccc(Br)c1 (stereo not shown)", "assay": "releaser", "EC50": "25 nM"}
{"SMILES": "CNCCc1c[nH]c2ccc(OC)cc12", "assay": "transmitter release, releaser", "system": "rat brain synaptosomes", "setting": "together with: [3H]MPP+", "EC50": "> 10000 nM"}
{"SMILES": "Cc1ccc([C@H]2OC(N)=N[C@H]2C)cc1 (racemic)", "assay": "substrate release, releaser, [3H]MPP+ release", "system": "rat brain synaptosomes", "setting": "together with: [3H]MPP+ 9 nM", "EC50": "26.9 ± 5.9 nM"}
{"note": "For quick reference, copied from above:"}
{"SMILES": "Cc1ccc([C@H]2OC(N)=N[C@H]2C)cc1 (relative stereo)", "assay": "substrate release, releaser", "system": "rat brain synaptosomes", "setting": "together with: [3H]MPP+ 9 nM", "EC50": "11.8 ± 2 nM"}
{"SMILES": "NC1Cc2ccccc2C1", "EC50": "86 ± 13 nM"}
